Published values gathered from unrelated publications.
Each numbered part is a random draw from the data of one study; scales do not carry over between parts. Changes are numbered by the printed parent chain.
Chain of UniProt P35372 (whole entry, looked up): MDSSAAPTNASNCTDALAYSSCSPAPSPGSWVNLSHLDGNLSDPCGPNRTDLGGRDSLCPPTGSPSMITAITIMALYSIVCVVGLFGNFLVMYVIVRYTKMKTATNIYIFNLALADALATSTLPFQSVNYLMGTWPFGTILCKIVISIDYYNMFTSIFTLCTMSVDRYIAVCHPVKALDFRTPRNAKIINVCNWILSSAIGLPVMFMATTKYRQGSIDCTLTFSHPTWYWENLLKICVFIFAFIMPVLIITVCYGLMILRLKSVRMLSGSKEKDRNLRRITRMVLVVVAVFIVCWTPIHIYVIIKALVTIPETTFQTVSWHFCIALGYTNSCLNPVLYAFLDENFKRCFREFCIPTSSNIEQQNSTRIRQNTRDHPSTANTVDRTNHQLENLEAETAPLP

Block 1
Target: vanadate, free oxyanion
Technique: microfluidic competitive inhibition
Matrix: in vitro, cell-free expressed
Tested at: not given
Notes: derived from inhibition constants, unchanged parent 676 nM
Reading: lower = stronger binding
Parent: PafA, mature enzyme, eGFP fusion (Elizabethkingia meningoseptica, UniProt Q9KJX5); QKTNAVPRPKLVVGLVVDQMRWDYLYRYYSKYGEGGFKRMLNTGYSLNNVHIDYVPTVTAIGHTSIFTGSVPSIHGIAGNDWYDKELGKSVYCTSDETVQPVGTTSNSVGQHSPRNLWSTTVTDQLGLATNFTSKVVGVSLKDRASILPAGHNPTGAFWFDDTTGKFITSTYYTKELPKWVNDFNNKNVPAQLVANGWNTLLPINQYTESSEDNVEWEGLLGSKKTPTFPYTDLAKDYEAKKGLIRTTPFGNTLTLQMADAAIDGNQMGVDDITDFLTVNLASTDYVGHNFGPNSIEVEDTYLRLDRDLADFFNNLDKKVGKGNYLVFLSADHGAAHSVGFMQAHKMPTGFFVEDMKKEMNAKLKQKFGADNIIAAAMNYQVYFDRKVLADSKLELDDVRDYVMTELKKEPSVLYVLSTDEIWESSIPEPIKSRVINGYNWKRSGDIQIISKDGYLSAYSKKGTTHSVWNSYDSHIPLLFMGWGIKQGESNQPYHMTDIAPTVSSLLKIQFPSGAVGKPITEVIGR
| Change | oxyanion analog dissociation constant [nM] |
| --- | --- |
| R39G | 558 |
| T253V | 1620 |
| D317G | 1260 |
| P178G | 591 |
| S65G | 1030 |

Block 2
Compound: CO[C@@H](C)c1c(Nc2ccc([C@H](N(C)C(=O)C3CCS(=O)(=O)CC3)C(F)(F)F)cc2)cnc2cc(Cl)nn12
Tested at: 10 µM
| target | test | inhibition |
| --- | --- | --- |
| DRD5 (Homo sapiens, UniProt P21918) | ligand displacement | 9.7% |
| HTR1A (Homo sapiens, UniProt P08908) | ligand displacement | -16.5% |
| SLC6A4 (Homo sapiens, UniProt P31645) | cell-free assay | 11.3% |
| OPRM1 (Homo sapiens, UniProt P35372) | ligand displacement | 6.13% |

Block 3
Target: Histone acetyltransferase KAT6A, winged helix 1, GST fusion (KAT6A, Homo sapiens, UniProt Q92794, residues 1-85)
Technique: protein binding microarray
Molecule type: double-stranded DNA, one strand shown
Matrix: in vitro
Tested at: not given
Notes: 8-mer, flanks averaged, mean of 2 arrays, mostly near background
Relative to: not given
Reading: higher = stronger binding
Target sequence (chain): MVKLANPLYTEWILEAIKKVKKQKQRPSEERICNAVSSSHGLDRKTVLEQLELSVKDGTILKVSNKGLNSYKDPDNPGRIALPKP
| Strand | E-score |
| --- | --- |
| ACTCCCAC | -0.0454 |
| ATTCTAGG | -0.232 |
| CCGTTTAG | 0.273 |
| ACGGGGGA | 0.232 |
| ACCTACCA | -0.33 |
| AATTGGAG | -0.215 |
| CGCTTGCA | 0.0515 |
| CTGGGTTA | -0.143 |

Block 4
Target: CCNE2, cyclin fold, Cln2 fusion (human)
Technique: yeast growth competition, sequencing
Matrix: yeast
Notes: weak parent motif
Relative to: not given
Reading: higher = stronger binding
Parent: viral docking peptide; PTARRRLLHDLDT
| Change | normalised enrichment score |
| --- | --- |
| PTARKRLLFDLDT [R5K H9F] | 2.19 |
| PTARKRLFHDLDT [R5K L8F] | 2.24 |
| PTARRRLLHDLAT [D12A] | 0.516 |
| PTARRRLLHALDT [D10A] | 0.668 |
| PTARRRLAHDLDT [L8A] | -0.217 |
| PTARKRLLHDLDT [R5K] | 0.0849 |
| PTARRALLHDLDT [R6A] | 1.09 |
| PTARRRALHDLDT [L7A] | 0.189 |
| PAARRRLLHDLDT [T2A] | 0.499 |
| PTARAAAAHDLDT [R5A R6A L7A L8A] | -0.0505 |

For quick reference, copied from above (block 4):
| Change | normalised enrichment score |
| --- | --- |
| PTARRALLHDLDT [R6A] | 1.09 |
| PTARRRALHDLDT [L7A] | 0.189 |
| PAARRRLLHDLDT [T2A] | 0.499 |
| PTARAAAAHDLDT [R5A R6A L7A L8A] | -0.0505 |
